Results of several laboratories.
Protocols differ between the studies behind these lines.
Sequence of UniProt P49116 (whole entry, looked up): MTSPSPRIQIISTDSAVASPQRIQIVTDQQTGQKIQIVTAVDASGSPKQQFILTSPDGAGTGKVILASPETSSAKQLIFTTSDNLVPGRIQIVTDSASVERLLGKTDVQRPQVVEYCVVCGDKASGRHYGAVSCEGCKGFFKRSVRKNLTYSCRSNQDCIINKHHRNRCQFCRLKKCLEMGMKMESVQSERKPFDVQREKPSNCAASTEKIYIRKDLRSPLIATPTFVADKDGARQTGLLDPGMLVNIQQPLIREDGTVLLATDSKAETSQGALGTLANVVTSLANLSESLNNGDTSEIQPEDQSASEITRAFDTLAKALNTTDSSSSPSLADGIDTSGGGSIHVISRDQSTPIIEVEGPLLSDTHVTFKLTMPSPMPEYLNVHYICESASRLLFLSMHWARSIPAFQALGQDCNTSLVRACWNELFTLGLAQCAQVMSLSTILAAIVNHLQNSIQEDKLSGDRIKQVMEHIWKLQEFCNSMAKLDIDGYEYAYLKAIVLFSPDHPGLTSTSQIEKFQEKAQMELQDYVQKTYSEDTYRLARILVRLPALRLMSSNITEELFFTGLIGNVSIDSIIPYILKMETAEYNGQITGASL

CCCCc1nc2cc(/C=C/C(=O)NO)ccc2n1CCN(CC)CC has a viability of 41% (OCI-Ly1; 0.1 µM, 120 h).
With COCCOC(=O)C1=C(C)NC(C)=C(C(=O)OC(C)C)C1c1cccc([N+](=O)[O-])c1 (centres unmarked) the Kd was 218 pM (Nuclear receptor subfamily 2 group C member 2, ligand-binding domain (Homo sapiens, UniProt P49116); SPR imaging).
The AUC(0-last) of COc1ncc(-c2nc3c(n2C(C)C)[C@H](c2ccc(Cl)cc2)N(c2cc(Cl)cn(C)c2=O)C3=O)c(OC)n1 is reported as 306 ng·h/mL (LC-MS/MS; human, plasma; oral, 7.5 mg, cycle 1 day 8, low-dose arm).
With CNC(=O)c1ccc(-c2cnc3ncc(Cc4ccc5ncccc5c4)n3n2)cc1F the AUC(0-t) was 5210 ng·h/mL (human, plasma; oral, 200 mg, geometric mean).
Under “change in clinical chemistry or haematology parameter”, CCc1cc(C(=O)NC)c2nccc(N3CCc4c(cc(Cn5ccnc5)cc4-c4cn(C)nc4C(F)(F)F)C3=O)c2c1 is recorded as -4.8% (measured: UA; Sprague Dawley rat; oral, 100 mg/kg once daily, 7 days; baseline: vehicle).
For O=C(O)c1cccc(C(=O)O)c1, “apparent dissolution enthalpy” read 15 kcal/mol (Bet/EG deep eutectic solvent; 303.0 K).
For C=CC(=O)Nc1cc(Nc2nccc(-c3cn(C)c4ccccc34)n2)c(OC)cc1N(C)CCN(C)C, the recovery was 95.6% (storage stability; human plasma; 30 d, -80 °C, LLOQ level).
Under “participants, with TEAEs, treatment-related”, C[C@@H](N)C1CCN(S(=O)(=O)c2cccc3cnccc23)CC1 is recorded as 66.7% (healthy volunteers; 250 mg, fasted).
Under “maximum ACTH level”, N#Cc1ccc2c(c1)[C@H]1CCCN(C(=O)c3ccc4[nH]cnc4c3)[C@H]1C2 is recorded as 9.1 pmol/L (human; 160 mg, end of trial).
CO[C@H]1/C=C/O[C@@]2(C)Oc3c(C)c(O)c4c(O)c(c(/C=N/N5CCN(C)CC5)c(O)c4c3C2=O)NC(=O)/C(C)=C\C=C\[C@H](C)[C@H](O)[C@@H](C)[C@@H](O)[C@@H](C)[C@H](OC(C)=O)[C@@H]1C gave an amount permeated of 2.22 nmol (starch gel membrane permeability; Gram-negative envelope surrogate; 200 µM, 60 min, pH 7.4).
For COc1cc(C=O)ccc1O, the plasma concentration was 1570 nM (human plasma; mean, both sexes).
NC[C@H]1O[C@H](O[C@H]2[C@H](O)[C@@H](O[C@H]3O[C@H](CO)[C@@H](O)[C@H](N)[C@H]3O)[C@H](N)C[C@@H]2N)[C@H](N)C[C@@H]1O gave an amount permeated of 0.18 nmol (starch gel membrane permeability; Gram-negative envelope surrogate; 200 µM, 10 min, pH 7.4).
CC(C)n1c(Nc2cccnc2)nc2cnc(Nc3ccc(N4CCN(C)CC4)cc3)nc21 — result for “subjects with TEAE”: 2.4% (measured: urine leukocytes positive; healthy human, male; oral, dose not given, CTCAE grade 1-3).
Under “peripheral volume of distribution”, CN[C@H]1C(=O)N[C@@H]2Cc3ccc(cc3)Oc3cc4cc(c3O[C@@H]3O[C@H](C(=O)O)[C@@H](O)[C@H](O)[C@H]3NC(=O)CCCCCCCCC(C)C)Oc3ccc(cc3Cl)[C@@H](O)[C@@H]3NC(=O)[C@H](NC(=O)[C@@H]4NC(=O)[C@@H](NC2=O)c2cc(cc(O)c2Cl)Oc2cc1ccc2O)c1ccc(O)c(c1)-c1c(O[C@H]2O[C@H](CO)[C@@H](O)[C@H](O)[C@@H]2O)cc(O)cc1[C@@H](C(=O)NCCCN(C)C)NC3=O is recorded as 6.1 L (population PK model; paediatric patients; dose not given, reference weight 70 kg).
Cn1cnc2c1c(=O)[nH]c(=O)n2C — result for “samples above LOQ”: 96.7% (human, both sexes, cerebrospinal fluid).
Under “subjects with adverse event”, CC(C)c1nc(N(C)S(C)(=O)=O)nc(-c2ccc(F)cc2)c1/C=C/[C@@H](O)C[C@@H](O)CC(=O)O is recorded as 0% (measured: vascular disorders; healthy men; oral, dose not given, 8 days, treatment-emergent, crossover trial).
O=C1CCc2ccc(OCCCCN3CCN(c4cccc(Cl)c4Cl)CC3)cc2N1 — result for “adverse event incidence”: 8.6% (measured: Rigidity; patients, CYP2D6 intermediate metabolizers; dose not given, long-acting oral or depot).
With COc1cc(C[C@@H](CO)[C@H](CO)Cc2ccc(O)c(OC)c2)ccc1O the plasma concentration was 1810 nM (human plasma; median).
The AUCtau, dose-normalized of C[C@H]1Oc2cc(cnc2N)-c2c(nn(C)c2C#N)CN(C)C(=O)c2ccc(F)cc21 is reported as 64 ng·h/mL/mg (human patients, plasma; oral, dose not given, cycle 2 day 1, mean, together with: avelumab).
Under “serum blood urea nitrogen”, COc1cccc2c1c(O)c(C(=O)N(C)c1ccc(C(F)(F)F)cc1)c(=O)n2C is recorded as “no effect” (mouse, CP model, serum; 0.154 µmol/kg, 4 weeks).
Cc1ccc(NC(=O)CCCCCC(=O)Nc2ccccc2N)cc1 gave a viability of 150% (OCI-Ly1; 0.5 µM, 120 h).
With Cc1cc(C)c(CNC(=O)c2cc(Cl)c3c(c2C)O[C@@](C)([C@H]2CC[C@H](N(C)C)CC2)O3)c(=O)[nH]1 the TEAE incidence was 50% (healthy Japanese male volunteers; oral, dose not given, together with: fluconazole).
O=C(COc1ccc(Cl)cc1)NC12CC(c3nnc([C@H]4C[C@@H](OC(F)(F)F)C4)o3)(C1)C2: “adverse event incidence” 8.8% (measured: Myalgia; human; oral, dose not given, 14 days).

Repeated from above:
CCCCc1nc2cc(/C=C/C(=O)NO)ccc2n1CCN(CC)CC has a viability of 41% (OCI-Ly1; 0.1 µM, 120 h).
With COCCOC(=O)C1=C(C)NC(C)=C(C(=O)OC(C)C)C1c1cccc([N+](=O)[O-])c1 (centres unmarked) the Kd was 218 pM (Nuclear receptor subfamily 2 group C member 2, ligand-binding domain (Homo sapiens, UniProt P49116); SPR imaging).
The AUC(0-last) of COc1ncc(-c2nc3c(n2C(C)C)[C@H](c2ccc(Cl)cc2)N(c2cc(Cl)cn(C)c2=O)C3=O)c(OC)n1 is reported as 306 ng·h/mL (LC-MS/MS; human, plasma; oral, 7.5 mg, cycle 1 day 8, low-dose arm).
